Results from different studies.
Lines come from different studies, so protocols differ.

C[C@@H]1OC(=O)NN=C1c1ccc(-c2ccc(F)cc2)c(C(F)(F)F)c1 — patients with back pain (patients, phase I trial; oral, 5 mg once daily, worst grade 1): 0%
COc1cc2c(Oc3ccc4[nH]c(C)cc4c3F)ccnc2cc1OCC1(N)CC1 — patients with grade 3 ALT elevation (paediatric refractory sarcoma patients; 8 mg/kg): 0%
O=C1Nc2cc3[nH]nc(-c4ccncc4)c3cc2CN1Cc1ccccc1 — patients with fatigue (CTCAE v4.03; advanced solid tumour patients; intravenous, 1.8 mg/kg, schedules 1/2): 0%
COc1c(C)cnc(Cn2cc(C#CCCOP(=O)(O)O)c3c(Cl)nc(N)nc32)c1C — patients with hot flushes (patients, advanced solid tumours; dose not given, possibly drug-related): 29%
COc1ccc(-c2c(-c3ccc(C#N)c(F)c3)nc(N3CCC(N)CC3)n(C)c2=O)cc1F — patients with TRAE any grade (measured: conjunctival hemorrhage; relapsed/refractory MZL patients; oral, 60 mg, dose expansion): 0%
[O-][S+]1CCc2nc(N3CCC(c4ncc(Cl)cn4)CC3)nc(NC3(CO)CCC3)c21 (centres unmarked) — patients with occult blood positive (adverse event; idiopathic pulmonary fibrosis patients; 18 mg twice daily): 30%
C=CC(=O)N1CC[C@H](n2nc(C#Cc3cc(OC)cc(OC)c3)c3c(N)ncnc32)C1 — patients with ADR (measured: blood creatinine increased; hyperphosphataemia patients; oral, once daily, any grade, ferric citrate users): 100%
Cn1cc(-c2nc(N[C@@H]3CCCC[C@@H]3N)c(F)c3c2C(=O)NC3)cn1 — patients with gingival bleeding (relapsed/refractory AML patients; oral, 80 mg twice daily, phase Ib trial): 17%
CN1CC[C@@H](c2c(O)cc(O)c3c(=O)cc(-c4ccc(C(F)(F)F)cc4Cl)oc23)[C@@H]1CO — patients with adverse event (measured: Epistaxis; relapsed AML; oral, 200 mg, grade 3-4, intermittent dosing): 0%
N[C@@H]1c2ccccc2OC12CCN(c1cnc3c(N4CCCc5ncccc54)n[nH]c3n1)CC2 — patients with serious TEAE (advanced solid tumour patients; oral, 60 mg once daily): 20%
CC(=O)c1c(C)c2cnc(Nc3ccc(C4CCN(CCS(C)(=O)=O)CC4)cn3)nc2n(C2CCCC2)c1=O — patients with TEAE grade ≥3 (HR+/HER2- advanced breast cancer patients; oral, 50 mg): 66.7%
COc1nnc2ccc(N3CCC(c4ccc(OCCN5CCN(C)C(=O)[C@H]5C)cc4)CC3)nn12 — patients with adverse event (measured: fatigue; patients with solid tumours or lymphoma; oral, dose not given, all grades, treatment-related): 35.3%
C=CCNc1c(O)cc2c(O)c1C[C@@H](C)C[C@H](OC)[C@H](O)[C@@H](C)/C=C(\C)[C@H](OC(N)=O)[C@@H](OC)/C=C\C=C(/C)C(=O)N2 — patients with AST increase (unresectable or metastatic sarcoma; intravenous, 90 mg/m^2, grade 3-4 lab change): 0%
Nc1nc2cc(-c3ccc4ncc(C(=O)N5CCOCC5)n4c3)ccc2o1 — patients with adverse events (measured: Fatigue, any cause, grade ≥3; patients with advanced solid tumours; dose not given): 4%

Repeated from above:
CC(=O)c1c(C)c2cnc(Nc3ccc(C4CCN(CCS(C)(=O)=O)CC4)cn3)nc2n(C2CCCC2)c1=O — patients with TEAE grade ≥3 (HR+/HER2- advanced breast cancer patients; oral, 50 mg): 66.7%
[O-][S+]1CCc2nc(N3CCC(c4ncc(Cl)cn4)CC3)nc(NC3(CO)CCC3)c21 (centres unmarked) — patients with occult blood positive (adverse event; idiopathic pulmonary fibrosis patients; 18 mg twice daily): 30%
